Experimental data from different studies.
Parts stem from different laboratories: compare values within a part only. Substitutions count along the parent as printed.

Sample 1
Target: ABI1, truncated, D143A, DHFR fusion (Arabidopsis thaliana)
Method: DHFR PCA, deep sequencing
Matrix: yeast
Notes: methotrexate growth selection, single substitutions
With: (+)-ABA 710 µM
Baseline: wild-type fitted maximum
Reading: higher = stronger binding
Starting sequence: PYL1, truncated, DHFR fusion (Arabidopsis thaliana); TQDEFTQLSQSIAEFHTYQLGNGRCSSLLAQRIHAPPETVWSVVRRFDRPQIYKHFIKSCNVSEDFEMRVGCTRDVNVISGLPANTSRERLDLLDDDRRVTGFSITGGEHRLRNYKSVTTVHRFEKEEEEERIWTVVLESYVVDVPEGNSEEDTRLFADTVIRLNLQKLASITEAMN; partner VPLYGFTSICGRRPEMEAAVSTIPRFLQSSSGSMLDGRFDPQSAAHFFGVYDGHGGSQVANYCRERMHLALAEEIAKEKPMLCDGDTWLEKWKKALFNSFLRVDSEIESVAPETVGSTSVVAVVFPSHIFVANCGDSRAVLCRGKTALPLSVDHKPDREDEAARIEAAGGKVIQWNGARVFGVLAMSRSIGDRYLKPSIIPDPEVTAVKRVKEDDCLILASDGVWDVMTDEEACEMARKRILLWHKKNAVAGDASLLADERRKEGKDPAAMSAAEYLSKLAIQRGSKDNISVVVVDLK
Variant | relative binding score [%]
M176Y | 95.8
N22D | 100
L20R | 103
L166Y | 20
V100R | 90.5
T120K | 8.81
C72I | 93.9
I133S | 111
H34I | 98.1
Q10W | 99.5
I33T | 66.2
T6A | 109
V40R | -8.94
W41Q | -25.5
T17I | 87.3
D65S | 97.3
L28T | 91.3
E129M | 99.8
G81Q | 49.5
E127S | 105
E128N | 108
L94W | 104
L94A | 63.9
E139V | 98.6
D48T | 67.4

Sample 2
Target: Ras GTPase-activating protein-binding protein 1, full length (G3BP1, Homo sapiens, UniProt Q13283)
Chain of UniProt Q13283 (whole entry, looked up): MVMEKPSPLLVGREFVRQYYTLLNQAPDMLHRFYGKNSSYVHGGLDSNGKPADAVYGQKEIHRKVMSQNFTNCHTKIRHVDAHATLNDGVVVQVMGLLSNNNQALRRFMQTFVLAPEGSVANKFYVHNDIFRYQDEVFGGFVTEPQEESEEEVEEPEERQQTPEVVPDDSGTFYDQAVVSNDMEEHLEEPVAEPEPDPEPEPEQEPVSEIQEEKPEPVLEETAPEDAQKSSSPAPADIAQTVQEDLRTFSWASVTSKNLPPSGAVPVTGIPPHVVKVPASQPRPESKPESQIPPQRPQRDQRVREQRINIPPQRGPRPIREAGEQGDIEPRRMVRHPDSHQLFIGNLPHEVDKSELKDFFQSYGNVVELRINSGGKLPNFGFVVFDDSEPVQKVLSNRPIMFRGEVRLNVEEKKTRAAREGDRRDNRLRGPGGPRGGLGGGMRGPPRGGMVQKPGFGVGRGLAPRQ
Method: RNA Bind-n-Seq
Form: RNA
Matrix: in vitro
Tested at: 200 nM
Notes: whole 134-nt RNA, ends assumed
With: 150 mM LiCl
Baseline: input library
Reading: higher = stronger binding
Each molecule: 7-deaza-guanosine replaces G
Oligonucleotide | log2 enrichment
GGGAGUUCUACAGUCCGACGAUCUUUUAGAAAGAGAAGGGGAAGAAAAUGAAGCCUUACAUAAGAUGAUUGCAAACGAGCAAAAGACUUCUCUCCCAAAUUUGUUCCAGGAUAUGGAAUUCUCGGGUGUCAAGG | -2.52
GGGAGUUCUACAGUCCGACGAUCUCAAGUCCUGUGCUACACAUCGUAUGUACCGAAUCGGGGUUGGUUGGGGUUGGGGAAAGUAUUAUGUUACGCCGUUCGGAUCUGCACUUCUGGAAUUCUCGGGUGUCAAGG | -0.418
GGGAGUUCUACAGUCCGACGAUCGUCCUGUGCUACACAUCGUAUGUACCGAAUCGGGAAAAAGGGUUUUUUUGGGAAAGGGAAAGUAUUAUGUUACGCCGUUCGGAUCUGCACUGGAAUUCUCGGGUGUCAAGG | -1.7
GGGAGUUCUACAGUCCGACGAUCUUAGAUGAGUGACCGAGGAGGUGGCGUUCCUUUGAGGAAAAUUGACAGACUUUUCAACUACAUGUAUUCAACUGCACCAAGACCUCGUGUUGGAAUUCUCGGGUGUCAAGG | -0.617
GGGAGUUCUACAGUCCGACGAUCGCAGGAAGUAAAAACAAAUGGAAAUGCUUCGGAUAGUGGCAGGGGUGGGGGUUGCUAAGGAAAGGGUGGGAUGGGAGUGGGUAAAGAGCUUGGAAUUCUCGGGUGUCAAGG | 0.236
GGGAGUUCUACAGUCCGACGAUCUCCUGUGCUACACAUCGUAUGUACCGAAUCGGGGAAAAAAAGGGGAAAGGGGUUUGGGGAAAGUAUUAUGUUACGCCGUUCGGAUCUGCAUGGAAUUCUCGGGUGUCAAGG | 0.00509
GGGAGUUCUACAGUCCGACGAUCCAAGUCCUGUGCUACACAUCGUAUGUACCGAAUCGGGUUUGGGUUUUUGGGAGGGAAAGUAUUAUGUUACGCCGUUCGGAUCUGCACUUCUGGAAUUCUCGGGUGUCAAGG | 0.229
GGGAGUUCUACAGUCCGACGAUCAGUCCUGUGCUACACAUCGUAUGUACCGAAUCGGGCCCCCGGCCCCCGGCCCCCGGGAAAGUAUUAUGUUACGCCGUUCGGAUCUGCACUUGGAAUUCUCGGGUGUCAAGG | -0.443

Sample 3
Target: UBE2R2 UBC core domain (UniProt Q712K3)
Chain of UniProt Q712K3 (whole entry, looked up): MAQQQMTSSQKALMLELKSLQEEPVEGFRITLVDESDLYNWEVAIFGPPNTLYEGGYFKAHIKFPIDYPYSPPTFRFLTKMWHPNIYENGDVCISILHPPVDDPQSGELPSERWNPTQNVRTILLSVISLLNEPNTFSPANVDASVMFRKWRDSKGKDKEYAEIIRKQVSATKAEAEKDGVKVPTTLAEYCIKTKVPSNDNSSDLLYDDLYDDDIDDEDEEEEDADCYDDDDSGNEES
Method: yeast two-hybrid
Matrix: yeast
Notes: mostly zero background
Baseline: not given
Reading: higher = stronger interaction
B1: DEF8 RING domain (UniProt Q6ZN54); chain AGRLGCSLTEIHTLFAKHIKLDCERCQAKGFVCELCREGDVLFPFDSHTSVCADCSAVFHRDCYYDNSTTCPKCARLSLRK
B2: TRIM26 RING domain (UniProt Q12899); chain PLRSLEEEVTCSICLDYLRDPVTIDCGHVFCRSCTTDVRPISGSRPVCPLCKKPFKKENIRP
B3: RNF31 RING domain (UniProt Q96EP0); chain AFLRRLLAQECAVCGWALPHNRMQALTSCECTICPDCFRQHFTIALKEKHITDMVCPACGRPDLTDDTQLL
B4: RNF152 RING domain (UniProt Q8N8N0); chain ETLSQDSLLECQICFNYYSPRRRPKLLDCKHTCCSVCLQQMRTSQKDVRCPWCRGVTKLPPGFS
B5: ANAPC11 RING domain (UniProt Q9NYG5); chain GICRMAFNGCCPDCKVPGDDCPLVWGQCSHCFHMHCILKWLHAQQVQQHCPMCRQEWKFKE
B6: RNF122 RING domain (UniProt Q9H9V4); chain AKKLQLYGQTCAVCLEDFKGKDELGVLPCQHAFHRKCLVKWLEVRCVCPMCNKPIASPSEAT
B7: RNF2 RING domain (UniProt Q99496); chain SPRSLHSELMCPICLDMLKNTMTTKECLHRFCADCIITALRSGNKECPTCRKKLVSKRSLR
B8: RNF187 RING domain (UniProt Q5TA31); chain ALPAGPAEAACALCQRAPREPVRADCGHRFCRACVVRFWAEEDGPFPCPECADDCWQRAVEP
Sequence | lacZ reporter activity
B1 (DEF8 RING domain) | 0
B2 (TRIM26 RING domain) | 0
B3 (RNF31 RING domain) | 0
B4 (RNF152 RING domain) | 0
B5 (ANAPC11 RING domain) | 0
YCEMGSTFQLCKICAENDKDVKIEPCGHLMCTSCLTAWQESDGQGCPFCRCEIKGTEPII (CBLB RING domain (UniProt Q13191)) | 0
B6 (RNF122 RING domain) | 0
B7 (RNF2 RING domain) | 0
MNDVLENELQCIICSEYFIEAVTLNCAHSFCSYCINEWMKRKIECPICRKDIKSKTYSL (RNF8 RING domain (UniProt O76064)) | 0
QVQSRTKIEECVVCSDKKAAVLFQPCGHMCACENCANLMKKCVQCRAVVERRVPFI (MIB1 RING domain (UniProt Q86YT6)) | 0
B8 (RNF187 RING domain) | 0

Sample 4
Target: CCND3, cyclin fold, Cln2 fusion (human)
Method: yeast growth competition, sequencing
Matrix: yeast
Notes: weak parent motif
Baseline: not given
Reading: higher = stronger binding
Starting sequence: CDC25A docking peptide (human); PPHRRRLLFACSP; partner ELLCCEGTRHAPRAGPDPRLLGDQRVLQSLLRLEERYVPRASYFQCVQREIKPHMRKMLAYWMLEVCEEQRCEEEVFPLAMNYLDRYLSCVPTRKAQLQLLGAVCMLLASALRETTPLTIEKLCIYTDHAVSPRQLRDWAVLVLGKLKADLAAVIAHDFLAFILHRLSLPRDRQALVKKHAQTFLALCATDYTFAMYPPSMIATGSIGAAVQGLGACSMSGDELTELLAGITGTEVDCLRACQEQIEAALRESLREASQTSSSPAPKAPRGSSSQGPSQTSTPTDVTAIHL
Variant | normalised enrichment score
S12N | 0.197
P1K | 0.166
S12G | 0.136
R6F | 0.0937
H3L | 0.175
P1W | 0.146
R6H | 0.101
H3P | 0.0755
F9Q | 0.125
P1T | 0.0895
L7C | 0.147
L7A | 0.181
L8P | 0.0758
L7F | 0.148
P2E | 0.157
L7R | 0.0893
C11A | 0.177

Some of these lines once more (sample 1):
Variant | relative binding score [%]
L20R | 103
L166Y | 20
C72I | 93.9
M176Y | 95.8
T6A | 109
L28T | 91.3
V100R | 90.5
N22D | 100
E128N | 108
